Published values gathered from unrelated publications.
Numbered parts are unrelated; each lists some results of a single study. Substitutions count along the parent as printed.

Series 1 — method: protein binding microarray; molecule type: double-stranded DNA, one strand shown; medium: in vitro; tested at: not given; relative to: not given; reading: higher = stronger binding; quantity: E-score
Target: Histone acetyltransferase KAT6A, both winged helices, GST fusion (KAT6A, Homo sapiens, UniProt Q92794, residues 1-181)
Notes: 8-mer, flanks averaged, mean of 2 arrays, mostly near background
Residues (chain): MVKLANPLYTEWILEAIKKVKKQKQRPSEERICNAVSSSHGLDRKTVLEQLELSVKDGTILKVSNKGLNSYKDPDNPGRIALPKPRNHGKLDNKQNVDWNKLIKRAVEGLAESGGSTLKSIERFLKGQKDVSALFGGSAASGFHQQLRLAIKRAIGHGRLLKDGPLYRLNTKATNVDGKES
Oligonucleotide = ATCTCTCG; result = -0.0561
Oligonucleotide = CTTCAACC; result = -0.0838
Oligonucleotide = AGTCCTAA; result = 0.061
Oligonucleotide = GGCGTACC; result = 0.0876
Oligonucleotide = CATTCTTC; result = -0.0878
Oligonucleotide = CAAGGCAC; result = -0.193
Oligonucleotide = GAGCCGCA; result = 0.185
Oligonucleotide = AAATTATC; result = 0.0172
Oligonucleotide = CCAATAGA; result = -0.16
Oligonucleotide = CCATTCTC; result = -0.249
Oligonucleotide = GCAGTACC; result = -0.0685
Oligonucleotide = ACATAATA; result = -0.112
Oligonucleotide = ACACGTGG; result = -0.0917
Oligonucleotide = AGGCCAGA; result = -0.145
Oligonucleotide = CACCAATA; result = -0.147
Oligonucleotide = ACGGAGCA; result = 0.0622
Oligonucleotide = GTATGTCA; result = -0.0395
Oligonucleotide = CCCGCACG; result = 0.227
Oligonucleotide = ATGTTTCC; result = 0.146
Oligonucleotide = ATCACGTG; result = -0.0443
Oligonucleotide = AACCCTAC; result = -0.193
Oligonucleotide = AAAACCGT; result = 0.0238
Oligonucleotide = ATTATCCG; result = 0.208
Oligonucleotide = GAAATTTA; result = -0.127
Oligonucleotide = ACCTCAAT; result = -0.181

Series 2 — method: RNA Bind-n-Seq; molecule type: RNA; medium: in vitro; tested at: 200 nM; notes: whole 134-nt RNA, ends assumed; together with: 150 mM LiCl; relative to: input library; reading: higher = stronger binding; quantity: log2 enrichment; all molecules: 7-deaza-guanosine replaces G
Target: Fragile X messenger ribonucleoprotein 1, C-terminal low-complexity region (Fmr1, Mus musculus, UniProt P35922)
Oligonucleotide = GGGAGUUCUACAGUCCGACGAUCUCCUGUGCUACACAUCGUAUGUACCGAAUCGGGGCCCCCGGGGCCCCCGGGCCCCCGGGAAAGUAUUAUGUUACGCCGUUCGGAUCUGCAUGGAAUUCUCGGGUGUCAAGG; result = -0.546
Oligonucleotide = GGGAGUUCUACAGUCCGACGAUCCUCAAGUCCUGUGCUACACAUCGUAUGUACCGAAUCGGGUUGGGUUGGGUUGGGAAAGUAUUAUGUUACGCCGUUCGGAUCUGCACUUCCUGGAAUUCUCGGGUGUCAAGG; result = -0.12
Oligonucleotide = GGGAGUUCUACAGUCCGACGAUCAAGUCCUGUGCUACACAUCGUAUGUACCGAAUCGGGGAAAGGGGUUUGGGGAGGGGAAAGUAUUAUGUUACGCCGUUCGGAUCUGCACUUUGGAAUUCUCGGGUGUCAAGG; result = -0.718
Oligonucleotide = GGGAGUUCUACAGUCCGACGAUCUGGACAGGUUGCUGGACCCCGCCAACAGAGCCCACCUGGGCCUGGAGGAGCAGCUGAGAGAGCUGCUGGACAUGCUCGACCUCACCUGCGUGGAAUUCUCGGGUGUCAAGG; result = -1.31
Oligonucleotide = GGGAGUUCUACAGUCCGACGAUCGCAGGAAGUAAAAACAAAUGGAAAUGCUUCGGAUAGUGGCAGAGGUGGGGGUUGCUAAGGAAAGGGUGGGAUGGGAGUGGGUAAAGAGUUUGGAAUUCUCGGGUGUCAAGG; result = 1.52
Oligonucleotide = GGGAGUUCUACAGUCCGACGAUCUAACUUUAGAGGAGGAUCUGAUGGAUAUGGCAGUGGACGUGGAUUUGGGGAUGGCUAGAAUGGGUAUGGAGGAGGACCUGGAGGUGGCAAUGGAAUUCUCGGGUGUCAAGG; result = 1.37
Oligonucleotide = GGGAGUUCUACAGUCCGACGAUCUGGAUUUUCAAGACACGAAUGCUCGGAGUCUGGCAGAAAGGAAGAGAGAAGAGGAGAAGCAGAAGCACUUGGAUAAAAUUUAUCAAGAAAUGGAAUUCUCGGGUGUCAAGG; result = -1.18
Oligonucleotide = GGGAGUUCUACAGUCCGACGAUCUCCUGUGCUACACAUCGUAUGUACCGAAUCGGGGAAAAAAAGGGGAAAAAGGGGUGGGGAAAGUAUUAUGUUACGCCGUUCGGAUCUGCAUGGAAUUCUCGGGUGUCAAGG; result = -0.706

Series 3 — method: aptamer microarray, sandwich; molecule type: DNA with 2'F-ANA; medium: in vitro; tested at: 200 nM; together with: Cy3 exosite-II aptamer, 400 nM; reading: higher = stronger binding; quantity: mean fluorescence intensity; oligonucleotide: GGTTGGTGTGGTTGG
Target: Prothrombin, mature alpha-thrombin (F2, Homo sapiens, UniProt P00734)
Notes: whole 15-mer aptamer, many near background
Modification = 2'F-ANA at 2 6 8 11 14 15; result = 113 a.u.
Modification = 2'F-ANA at 3 4 5 11 12 13 14 15; result = 53 a.u.
Modification = 2'F-ANA at 3 7 13 14; result = 785 a.u.
Modification = 2'F-ANA at 1 2 3 4 5 7 8 9 10 11 15; result = 81.6 a.u.
Modification = 2'F-ANA at 1 4 5 6 7 8 9 11; result = 72 a.u.
Modification = 2'F-ANA at 1 2 3 4 5 6 7 11 12 13; result = 78.1 a.u.
Modification = 2'F-ANA at 2 3 5 8 9 11 12 13 15; result = 131 a.u.
Modification = 2'F-ANA at 1 2 4 7 8 10 11 12 15; result = 59.1 a.u.
Modification = 2'F-ANA at 2 3 4 6 7 8 9 11 14 15; result = 213 a.u.
Modification = 2'F-ANA at 2 4 5 6 8 9 12 13; result = 89.6 a.u.
Modification = 2'F-ANA at 2 3 8 9 10 13; result = 364 a.u.
Modification = 2'F-ANA at 3 5 14; result = 78.8 a.u.
Modification = 2'F-ANA at 4 6 8 9 12 15; result = 472 a.u.
Modification = 2'F-ANA at 4 6 7 8 10 11 12; result = 122 a.u.
Modification = 2'F-ANA at 1 3 6 7 8 9 11 12 14 15; result = 112 a.u.
Modification = 2'F-ANA at 1 2 3 4 5 7 10 11 14; result = 52.5 a.u.
Modification = 2'F-ANA at 4 9 12 13; result = 372 a.u.
Modification = 2'F-ANA at 1 4 5 9 10 11 12 14; result = 45.3 a.u.
Modification = 2'F-ANA at 1 2 3 5 6 8 11; result = 161 a.u.
Modification = 2'F-ANA at 4 9 11 12 13 15; result = 300 a.u.

Series 4 — method: DHFR PCA, deep sequencing; medium: yeast; together with: (+)-ABA 1.4 µM; relative to: wild-type fitted maximum; reading: higher = stronger binding; quantity: relative binding score
Target: ABI1, truncated, D143A, DHFR fusion (Arabidopsis thaliana)
Notes: methotrexate growth selection, single substitutions
Parent: PYL1, truncated, DHFR fusion (Arabidopsis thaliana); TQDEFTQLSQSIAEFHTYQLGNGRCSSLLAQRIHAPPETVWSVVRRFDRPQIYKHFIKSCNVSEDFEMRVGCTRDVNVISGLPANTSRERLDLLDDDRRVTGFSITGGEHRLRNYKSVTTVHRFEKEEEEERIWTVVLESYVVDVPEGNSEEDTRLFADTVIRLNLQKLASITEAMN; partner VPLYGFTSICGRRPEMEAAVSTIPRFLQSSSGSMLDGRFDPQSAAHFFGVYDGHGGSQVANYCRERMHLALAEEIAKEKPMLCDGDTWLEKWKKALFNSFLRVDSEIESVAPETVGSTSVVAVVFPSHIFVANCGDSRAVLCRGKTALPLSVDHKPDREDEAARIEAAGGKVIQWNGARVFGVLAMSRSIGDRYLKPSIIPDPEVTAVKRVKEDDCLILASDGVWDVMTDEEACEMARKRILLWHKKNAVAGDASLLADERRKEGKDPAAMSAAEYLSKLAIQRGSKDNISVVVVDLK
Substitution = N165V; result = 16.2%
Substitution = L82K; result = -9.23%
Substitution = D92L; result = 2.82%
Substitution = F56W; result = 27%
Substitution = N77K; result = 73%
Substitution = E127H; result = 64.4%
Substitution = T120W; result = -8.35%
Substitution = R74L; result = -5.57%
Substitution = Q51C; result = -16.4%
Substitution = I12V; result = 35.8%
Substitution = E125D; result = 54.8%
Substitution = K58I; result = -12.3%
Substitution = D95E; result = -3.01%
Substitution = P37S; result = 18.8%
Substitution = Q19D; result = 76.8%
Substitution = F124I; result = 75.4%
Substitution = K116Y; result = -11.7%

For quick reference, copied from above (series 4):
Substitution = L82K; result = -9.23%
Substitution = E125D; result = 54.8%
Substitution = N77K; result = 73%
Substitution = F124I; result = 75.4%
Substitution = R74L; result = -5.57%
